# Measured values gathered from unrelated publications.
# Protocols differ between the studies behind these lines. Values joined by “and” are separate records of one study, mostly repeats; a detail may differ. ± marks the error that the study gave.
# Cell line: human red blood cells
SMILES,test,test system,setting,how to read,endpoint,value
CC(C)[C@H](N)CC(=O)N[C@H](CC(=O)N[C@@H](CCCNC(=N)N)CC(=O)N[C@H](CC(=O)N[C@H](CC(=O)N[C@@H](CCCNC(=N)N)CC(=O)N[C@H](CC(=O)N[C@H](CC(=O)N[C@@H](CCCNC(=N)N)CC(N)=O)C(C)C)C(C)C)C(C)C)C(C)C)C(C)C,,,"antifungal MIC, 1 h, pH 7.5",baseline: melittin,hemolysis,0.86 ± 1.9%
CC(C)C[C@H](N)C(=O)N[C@@H](Cc1c[nH]c2ccccc12)C(=O)N[C@@H](CCCNC(=N)N)C(=O)N[C@@H](CCCNC(=N)N)C(=O)N[C@@H](Cc1c[nH]c2ccccc12)C(=O)N[C@@H](CCCNC(=N)N)C(=O)N[C@@H](Cc1c[nH]c2ccccc12)C(=O)N[C@@H](Cc1c[nH]c2ccccc12)C(=O)N[C@@H](Cc1c[nH]c2ccccc12)C(=O)O,,,"1 h, 37 °C, 10% hemolysis",,lowest hemolytic concentration,> 256 µg/mL
CC[C@H](C)[C@H](NC(=O)[C@H](C)NC(=O)[C@H](CCCCN)NC(=O)[C@H](CCCCN)NC(=O)[C@@H](N)CCCNC(=N)N)C(=O)N[C@@H](CCCCN)C(=O)N[C@@H](CC(C)C)C(=O)N[C@H](C(=O)N[C@@H](CCCCN)C(=O)N[C@@H](CCCCN)C(=O)N[C@@H](CC(C)C)C(=O)N[C@H](C(=O)N[C@@H](CCCCN)C(=O)N[C@@H](CCCCN)C(=O)N[C@@H](CC(C)C)C(=O)N[C@@H](CCCCN)C(=O)N[C@@H](CCCCN)C(=O)N[C@@H](C)C(=O)N[C@@H](CC(C)C)C(=O)N[C@@H](CCCCN)C(=O)O)C(C)C)C(C)C,,PBS,1 mg/L,,hemolysis,1.5%
CN(C)CCCNC(=O)[C@@H]1NC(=O)[C@@H]2Cc3ccc(cc3)Oc3cc4cc(c3O)-c3ccc5c(c[nH]c5c3)C[C@@H](NC(=O)C(NC(=O)CCCCCN)c3ccc(O)cc3)C(=O)N[C@H](c3ccc(O)cc3)C(=O)N[C@H]4C(=O)N[C@@H](C(=O)N2C)c2ccc(cc2)Oc2cc1ccc2O (stereo partly shown),,PBS,"16 µg/mL, 1 h, pH 7.4, 37 °C",,hemolysis,1.9% and 0.95%
CC(C)C[C@H](NC(=O)[C@H](CC(C)C)NC(=O)[C@H](CCCCN)NC(=O)CNC(=O)[C@H](CC(C)C)NC(=O)CNC(=O)[C@H](CO)NC(=O)[C@H](CC(C)C)NC(=O)[C@H](CC(C)C)NC(=O)[C@H](CO)NC(=O)[C@H](CCCCN)NC(=O)[C@H](CC(C)C)NC(=O)[C@H](CCCCN)NC(=O)[C@H](CCCCN)NC(=O)[C@H](C)NC(=O)[C@H](C)NC(=O)[C@H](C)NC(=O)CNC(=O)[C@H](CO)NC(=O)[C@H](Cc1c[nH]c2ccccc12)NC(=O)[C@@H](N)CCCCN)C(=O)O,hemolysis,,1 h,,HC50,> 200 µM
CC(C)C[C@H](NC(=O)[C@H](CCCNC(=N)N)NC(=O)[C@H](CCCNC(=N)N)NC(=O)[C@@H](N)Cc1c[nH]c2ccccc12)C(=O)N[C@@H](Cc1c[nH]c2ccccc12)C(=O)N[C@@H](Cc1c[nH]c2ccccc12)C(=O)N[C@@H](Cc1c[nH]c2ccccc12)C(=O)N[C@@H](CCCNC(=N)N)C(=O)N[C@@H](Cc1c[nH]c2ccccc12)C(=O)O,,,"1 h, 37 °C, 10% hemolysis",,lowest hemolytic concentration,> 256 µg/mL
CC(C)C[C@H](NC(=O)[C@H](CC(C)C)NC(=O)[C@H](CCCCN)NC(=O)CNC(=O)[C@H](CC(C)C)NC(=O)CNC(=O)[C@H](CO)NC(=O)[C@H](CC(C)C)NC(=O)[C@H](CC(C)C)NC(=O)[C@H](CO)NC(=O)[C@H](CCCCN)NC(=O)[C@H](CC(C)C)NC(=O)[C@H](CCCCN)NC(=O)[C@H](CCCCN)NC(=O)[C@H](CC(C)C)NC(=O)[C@H](CC(C)C)NC(=O)[C@H](CC(C)C)NC(=O)CNC(=O)[C@H](CO)NC(=O)[C@H](Cc1c[nH]c2ccccc12)NC(=O)[C@@H](N)CCCCN)C(=O)O,hemolysis,,1 h,,HC50,12.5 to 25 µM
NCCCC[C@@H](CC(N)=O)NC(=O)[C@H]1CCCC[C@@H]1NC(=O)[C@H]1CCCC[C@@H]1NC(=O)C[C@H](CCCCN)NC(=O)[C@H]1CCCC[C@@H]1NC(=O)[C@H]1CCCC[C@@H]1NC(=O)C[C@H](CCCCN)NC(=O)[C@H]1CCCC[C@@H]1NC(=O)[C@H]1CCCC[C@@H]1N,,,"antifungal MIC, 1 h, pH 7.5",baseline: melittin,hemolysis,0.29 ± 1.73%
N=C(N)NCCC[C@H](NC(=O)[C@H](CCCNC(=N)N)NC(=O)[C@H](CCCNC(=N)N)NC(=O)[C@H](CCC(N)=O)NC(=O)[C@H](CCCNC(=N)N)NC(=O)[C@H](CCCNC(=N)N)NC(=O)[C@H](CCCCN)NC(=O)[C@H](CCCCN)NC(=O)[C@H](CCCNC(=N)N)NC(=O)CNC(=O)[C@H](Cc1ccc(O)cc1)NC(=O)[C@H](Cc1ccccc1)NC(=O)[C@H](Cc1ccccc1)NC(=O)[C@H](Cc1ccccc1)NC(=O)OCC1c2ccccc2-c2ccccc21)C(=O)O,hemolysis,,,minimum concentration causing 10% hemolysis,HC10,> 64 µM
CC[C@H](C)[C@H](NC(=O)[C@H](C)NC(=O)[C@H](CCCCN)NC(=O)[C@H](CC(C)C)NC(=O)[C@@H](N)Cc1ccccc1)C(=O)N[C@@H](CCCCN)C(=O)N[C@@H](CCCCN)C(=O)N[C@@H](Cc1ccccc1)C(=O)NCC(=O)N[C@@H](CCCCN)C(=O)N[C@@H](CCC(=O)O)C(=O)N[C@@H](Cc1ccccc1)C(=O)N[C@@H](CCCCN)C(=O)N[C@@H](CCCCN)C(=O)N[C@H](C(=O)NCC(=O)N[C@@H](C)C(=O)N[C@@H](CCCCN)C(=O)N[C@@H](CC(C)C)C(=O)N[C@@H](CCCCN)C(=O)O)[C@@H](C)CC,,PBS,1 mg/L,,hemolysis,0.225%

# A few entries again:
SMILES,test,test system,setting,how to read,endpoint,value
CC(C)C[C@H](NC(=O)[C@H](CC(C)C)NC(=O)[C@H](CCCCN)NC(=O)CNC(=O)[C@H](CC(C)C)NC(=O)CNC(=O)[C@H](CO)NC(=O)[C@H](CC(C)C)NC(=O)[C@H](CC(C)C)NC(=O)[C@H](CO)NC(=O)[C@H](CCCCN)NC(=O)[C@H](CC(C)C)NC(=O)[C@H](CCCCN)NC(=O)[C@H](CCCCN)NC(=O)[C@H](C)NC(=O)[C@H](C)NC(=O)[C@H](C)NC(=O)CNC(=O)[C@H](CO)NC(=O)[C@H](Cc1c[nH]c2ccccc12)NC(=O)[C@@H](N)CCCCN)C(=O)O,hemolysis,,1 h,,HC50,> 200 µM
